Published values collected from several papers.
Numbered parts are unrelated; each lists some results of a single study.

Study 1
Target: RNA binding protein fox-1 homolog 2, RRM domain, GST-SBP tag (RBFOX2, Homo sapiens, UniProt O43251-10, residues 100-194)
Method: RNA Bind-n-Seq
Form: RNA
Matrix: in vitro
Concentration: 365 nM
Notes: natural RNA segment, single round, ends assumed
Baseline: no-protein control
Reading: higher = stronger binding
Constant ends, left off below: GGGAGUUCUACAGUCCGACGAUC … UGGAAUUCUCGGGUGCCAA
Target sequence (chain): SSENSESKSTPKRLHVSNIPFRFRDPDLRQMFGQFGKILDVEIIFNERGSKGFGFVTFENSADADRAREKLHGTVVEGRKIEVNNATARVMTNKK
| Strand | RBNS enrichment (R) |
| --- | --- |
| UAAUUAUCAUACCUACCUACUUUAAAUUUUAGGUAGAAAAUUAUCUGAUUUAAAUACAAACAUAUUUUUCUCACAUUGAGUAAUAUGCAUAAUGUAGUUCCAAAUGUAUU | 1.08 |
| GCUGUGUGUGUCCAGGCACGGUUCCUUACGCCCCAUGUGUGCUGUGUGUGUCCUGCCUGUAUAUGUGGCUUCCUCUGAUGCUGACAAGGUGGGGAACAAUCCUUGCCAGA | 0.437 |
| CAGUAUUAAGGUUUUCAACCGGAAGGAGGCCAACCAGCCCGACAGUGCCAUCCCCACCUUCACCUCGGAGGGAUGGAGAAAGAAGUGGAGACAGUCCUUUCCCACCAUUC | 0.283 |
| GCCUUUCCUGCAGGAAGAGCCUCCCAAGGGAUGGCCAAAGAAGAGCAGGAUAGGCAAAGCUGUGGAAUGUACAUUUCCUGGAUGUCAGGGGUGACCAAAACAGUACAUCA | 0.25 |
| UUUACAUUUGGAUUAGAAAUUUAACAUAGUAAUUCUUAAGUCUUUUGUCUGAUUUUUAAAGUACUUUCUUAUAAAUUUGGAUCAUGUUAUGAUUUGUAACAUUCACACAA | 0.559 |
| UCUCUCCCCUCCAUCCCCUCCCCUGUUCUGAGAACCAGGUUAUCAGCCAAACAAGAAUCAGUUGAUCCCCUUGCACUUUGGACACUUCAAUGGAGCCUGAGCUGCUUAGA | 0.816 |
| GGGAUGGGGUGAAGCCCAGAGUGGGGGGGGGCAAGGUGUUCUCCCUCUGCAAGUGGAAUGUUACCCUGUGGGUGGCUGGGUCCAACAGGGUCCCUCCUGUCCCCCCUCUU | 0.61 |
| CAGCAAUCACAGCUCAAAUUGUGGACAAUCAAACCAAAGCCUUCAUUUAAGUUUGGCCACAUUUCAAAGAAAAUUGAAGUCCCAGCCUCAGAGAGUGUCGGUGGUUAAAG | 0.28 |
| AAUGGCUCGAAACACUUCUCAAAAGGAUAUACGUAUUGACCCCAACAAUAAAUGUUUGUGGCUAGUGCUUGUUUUUUGCUAUGUUGAUUCAGUGAAUGACCUAGAAGUCA | 0.471 |
| AUGUAUUCUCUUCUACAAUACAACACAUUGAAACUGUAUUUACUUGUUAUGUUGUAAUAUUUUGCUGCUGAAUUUGGGGCUACUUAUAUUCUGCAGAAAAUUAAUUGAAA | 0.599 |
| UUAGGACCAAAUUGUUAGAAAGCAUCAGGAUGACCAGUUAUCUCGAGUAGAUUUUCUUGGAUUUCAGAACAUCUAGCAUGACUCUGAAGGAUACCACAUGUUUUAUAUAU | 1.21 |
| CCAUCGGGGACACAGAGUGGCCAGGGCACCCCACCCUUGUCUCCGUGUACCCUAGCUCCCCAUCACUGCGCGCCCUCCAAGCUAGAGAGAUGGGACCCCAGGGGGGGUUA | 0.426 |

Study 2
Target: Sal-like protein 4, full length isoform B (SALL4, Homo sapiens, UniProt Q9UJQ4-2, residues 1-616)
Method: universal PBM
Form: double-stranded DNA, one strand shown
Matrix: in vitro
Concentration: not given
Notes: 8-mer, flanks averaged, mean of replicates
Reading: higher = stronger binding
| Strand | E-score |
| --- | --- |
| ACCGGCAC | -0.163 |
| GTTGTGGA | -0.0551 |
| ATCAGTAG | -0.0165 |
| AAGTCATT | 0.158 |
| ATTGGAAA | 0.224 |
| CGCATTAA | 0.264 |
| GTATGCGA | 0.103 |
| AAAGTCCG | -0.158 |
| CCACCCAG | -0.284 |
| CTTCTAAC | 0.00565 |
| ACAATGAC | 0.00647 |
| AGTTCAAC | 0.0141 |
| GCGGTAAC | -0.0228 |
| AGACAGAA | 0.0328 |
| AGCATCGA | 0.0342 |
| AGAAATAA | 0.33 |
| CTTAAATA | 0.177 |
| GCGAAAGC | -0.189 |
| GGATGCAC | -0.197 |

Study 3
Target: Interferon regulatory factor 7, full length, phosphomimetic (IRF7, Homo sapiens, UniProt Q92985, residues 1-503, S101K/S471D/S472D/S475D/S476D/S477D/S483D/S484D/S487D)
UniProt Q92985, sequence (whole entry, unmodified, looked up): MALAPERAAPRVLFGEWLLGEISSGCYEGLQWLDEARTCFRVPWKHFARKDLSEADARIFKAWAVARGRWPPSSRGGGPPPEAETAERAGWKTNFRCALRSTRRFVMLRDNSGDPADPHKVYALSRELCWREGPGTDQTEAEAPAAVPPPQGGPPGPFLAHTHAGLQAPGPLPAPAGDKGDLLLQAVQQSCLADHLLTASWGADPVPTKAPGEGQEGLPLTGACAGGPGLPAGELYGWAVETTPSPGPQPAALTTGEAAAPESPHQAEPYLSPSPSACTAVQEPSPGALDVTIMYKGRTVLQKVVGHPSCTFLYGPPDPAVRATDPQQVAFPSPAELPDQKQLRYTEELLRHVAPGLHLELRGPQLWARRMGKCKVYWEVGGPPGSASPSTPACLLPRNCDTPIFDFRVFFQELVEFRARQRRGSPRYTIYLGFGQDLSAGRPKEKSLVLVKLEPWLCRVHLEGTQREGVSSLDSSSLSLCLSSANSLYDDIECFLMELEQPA
Method: protein-binding microarray
Form: double-stranded DNA, one strand shown
Matrix: in vitro
Concentration: 250 nM
Notes: 60-bp whole probe
Added: salmon DNA 0.4 mg/ml
Baseline: random background probes
Reading: higher = stronger binding
Constant ends, left off below: GCCTAGCAC … GTCTTGATTCGCTTGACGCTGCTG
| Strand | log fluorescence |
| --- | --- |
| CTCGCCTGGGGATGCTAACAGTGCTAG | -0.625 z-score |
| TTATGTTTCGGTTTCGGTTAGTGCTAG | 13.2 z-score |
| TTAGGTCTCCTGCTCCTTTAGTGCTAG | -0.456 z-score |
| TTAGGTATCGGGACTGGCTTAGTGCTA | -0.0416 z-score |
| TTAGGTCTCCGACTGGGTTAGTGCTAG | -0.38 z-score |
| TTAGATTTCGGGACTGGATCAGTGCTA | 0.236 z-score |
| TCCTGGAGTCTATGCTGCTGGTGCTAG | -0.573 z-score |
| CTAGGTATCGGTATCGGTTAGTGCTAG | 3.3 z-score |
| GGTTTTCTCTATTGCTTTCTGTGCTAG | 3.11 z-score |
| GACGATATGAGTTTCGAGACGTGCTAG | 3.06 z-score |
| GACGTACTGGGGACTGGGGACGTGCTA | -0.0205 z-score |
| CTTCTCCTCCAGGTTCTCTGAGTGCTA | 0.227 z-score |
| GACGAACTGGGGGTTCGAGACGTGCTA | -0.00615 z-score |
| TGACAGAGTGAGGTTTGGGCGTGCTAG | -0.916 z-score |

Study 4
Target: Histone acetyltransferase KAT6A, winged helix 1, GST fusion (KAT6A, Homo sapiens, UniProt Q92794, residues 1-85)
Method: protein binding microarray
Form: double-stranded DNA, one strand shown
Matrix: in vitro
Concentration: not given
Notes: 8-mer, flanks averaged, mean of 2 arrays, mostly near background
Baseline: not given
Reading: higher = stronger binding
Residues (chain): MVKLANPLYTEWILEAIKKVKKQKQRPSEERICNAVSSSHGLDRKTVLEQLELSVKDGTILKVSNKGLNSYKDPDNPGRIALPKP
| Strand | E-score |
| --- | --- |
| CGAAGCGA | 0.0332 |
| AAGACATG | -0.0942 |
| CCCACGGC | 0.341 |
| CACCTATG | 0.0162 |
| GAAAAAAA | -0.122 |
| CGATGGCA | -0.0254 |
| CCCTGAGA | -0.225 |
| ACCCTGTA | -0.13 |
| AGTGACTA | -0.0645 |
| ACTTTCTC | -0.0192 |
| ACACCGTC | 0.246 |
| GCGGAATA | 0.227 |
| GACCTTTA | -0.0598 |
| CACGTACA | -0.254 |
| AGCACTAT | -0.083 |
| CGTTCTCA | -0.0254 |
| ACATAGAC | -0.0873 |
| AGCGAATC | 0.0319 |
| ATCTGACC | -0.0787 |
| CTTGGTTA | -0.109 |
| AGGCGCCA | 0.164 |
| ACCGCGTA | 0.35 |
| CAGGCCTG | -0.289 |
| GCTGCAGC | 0.0999 |
| CGAGGGGC | 0.0111 |

A few entries again (study 3):
| Strand | log fluorescence |
| --- | --- |
| GACGAACTGGGGGTTCGAGACGTGCTA | -0.00615 z-score |
| CTTCTCCTCCAGGTTCTCTGAGTGCTA | 0.227 z-score |
| TCCTGGAGTCTATGCTGCTGGTGCTAG | -0.573 z-score |
| TTAGGTATCGGGACTGGCTTAGTGCTA | -0.0416 z-score |
